Assay results gathered from unrelated publications.
Protocols differ between the studies behind these lines. Numbers after ± are the reported error.
CA9: Carbonic anhydrase 9 (CA9, Homo sapiens, UniProt Q16790)
Tumor necrosis factor receptor superfamily member 9/Nectin-4: Tumor necrosis factor receptor superfamily member 9/Nectin-4 (Homo sapiens, UniProt Q07011+Q96NY8)
Chain of UniProt Q07011 (whole entry, looked up): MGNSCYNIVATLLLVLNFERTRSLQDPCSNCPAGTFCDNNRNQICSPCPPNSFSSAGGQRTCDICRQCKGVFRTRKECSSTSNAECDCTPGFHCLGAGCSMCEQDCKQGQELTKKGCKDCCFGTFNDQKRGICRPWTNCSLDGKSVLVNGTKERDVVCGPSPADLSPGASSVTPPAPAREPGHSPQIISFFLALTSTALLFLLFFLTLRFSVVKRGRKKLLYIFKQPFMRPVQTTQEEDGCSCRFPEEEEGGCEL
Chain of UniProt Q96NY8 (whole entry, looked up): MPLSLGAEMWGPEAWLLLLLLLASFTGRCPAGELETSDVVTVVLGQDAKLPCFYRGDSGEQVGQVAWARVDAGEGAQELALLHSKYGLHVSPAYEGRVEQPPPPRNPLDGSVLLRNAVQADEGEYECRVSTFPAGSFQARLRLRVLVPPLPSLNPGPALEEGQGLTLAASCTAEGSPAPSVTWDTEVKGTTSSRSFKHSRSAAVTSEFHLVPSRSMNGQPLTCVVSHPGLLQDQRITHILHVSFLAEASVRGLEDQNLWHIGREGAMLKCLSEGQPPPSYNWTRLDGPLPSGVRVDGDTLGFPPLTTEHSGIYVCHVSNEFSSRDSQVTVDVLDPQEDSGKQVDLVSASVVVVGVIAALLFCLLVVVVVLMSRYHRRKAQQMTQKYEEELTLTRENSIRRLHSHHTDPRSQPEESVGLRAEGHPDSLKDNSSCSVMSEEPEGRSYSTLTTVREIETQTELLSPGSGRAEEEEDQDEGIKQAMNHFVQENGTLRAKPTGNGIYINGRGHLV
Chain of UniProt Q9UBE8 (whole entry, looked up): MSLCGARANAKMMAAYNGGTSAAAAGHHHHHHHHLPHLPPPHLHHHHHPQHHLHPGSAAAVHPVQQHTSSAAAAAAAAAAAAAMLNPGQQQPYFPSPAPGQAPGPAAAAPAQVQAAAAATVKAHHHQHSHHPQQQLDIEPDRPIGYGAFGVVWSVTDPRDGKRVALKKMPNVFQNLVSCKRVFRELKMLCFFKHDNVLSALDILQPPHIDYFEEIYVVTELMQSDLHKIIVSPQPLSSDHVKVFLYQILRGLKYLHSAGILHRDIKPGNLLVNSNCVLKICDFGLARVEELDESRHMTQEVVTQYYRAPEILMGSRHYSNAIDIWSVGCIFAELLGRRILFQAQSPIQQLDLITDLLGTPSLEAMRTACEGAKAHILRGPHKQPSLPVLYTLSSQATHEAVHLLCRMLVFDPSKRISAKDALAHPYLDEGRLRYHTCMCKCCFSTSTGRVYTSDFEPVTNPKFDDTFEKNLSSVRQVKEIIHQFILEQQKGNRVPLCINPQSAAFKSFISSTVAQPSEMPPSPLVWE
Chain of UniProt P22756 (whole entry, unmodified, looked up): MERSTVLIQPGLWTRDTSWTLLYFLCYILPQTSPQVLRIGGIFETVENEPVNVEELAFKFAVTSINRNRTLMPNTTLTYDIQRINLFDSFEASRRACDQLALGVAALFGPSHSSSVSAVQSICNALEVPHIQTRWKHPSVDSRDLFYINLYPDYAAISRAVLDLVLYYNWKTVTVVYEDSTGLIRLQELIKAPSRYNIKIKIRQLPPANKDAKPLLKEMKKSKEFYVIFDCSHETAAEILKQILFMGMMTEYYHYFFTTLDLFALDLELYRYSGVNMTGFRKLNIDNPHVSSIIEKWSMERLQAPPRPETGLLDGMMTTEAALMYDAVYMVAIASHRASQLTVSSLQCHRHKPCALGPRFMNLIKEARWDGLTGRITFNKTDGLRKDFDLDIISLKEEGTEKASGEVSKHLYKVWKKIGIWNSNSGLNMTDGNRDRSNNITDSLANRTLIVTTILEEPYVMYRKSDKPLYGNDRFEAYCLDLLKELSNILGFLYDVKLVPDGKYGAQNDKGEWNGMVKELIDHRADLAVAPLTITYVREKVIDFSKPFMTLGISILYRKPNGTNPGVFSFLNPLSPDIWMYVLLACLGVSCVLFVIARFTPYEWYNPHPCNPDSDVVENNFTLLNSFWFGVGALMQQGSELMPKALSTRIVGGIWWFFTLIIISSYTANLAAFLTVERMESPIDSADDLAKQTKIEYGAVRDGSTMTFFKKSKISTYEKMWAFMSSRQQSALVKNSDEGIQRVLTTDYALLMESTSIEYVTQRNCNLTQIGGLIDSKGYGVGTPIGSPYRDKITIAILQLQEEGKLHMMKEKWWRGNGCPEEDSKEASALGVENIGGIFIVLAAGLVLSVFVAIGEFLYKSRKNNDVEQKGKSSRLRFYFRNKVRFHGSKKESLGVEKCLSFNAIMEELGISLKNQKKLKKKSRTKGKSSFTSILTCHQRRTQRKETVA
Chain of UniProt P32300 (whole entry, looked up): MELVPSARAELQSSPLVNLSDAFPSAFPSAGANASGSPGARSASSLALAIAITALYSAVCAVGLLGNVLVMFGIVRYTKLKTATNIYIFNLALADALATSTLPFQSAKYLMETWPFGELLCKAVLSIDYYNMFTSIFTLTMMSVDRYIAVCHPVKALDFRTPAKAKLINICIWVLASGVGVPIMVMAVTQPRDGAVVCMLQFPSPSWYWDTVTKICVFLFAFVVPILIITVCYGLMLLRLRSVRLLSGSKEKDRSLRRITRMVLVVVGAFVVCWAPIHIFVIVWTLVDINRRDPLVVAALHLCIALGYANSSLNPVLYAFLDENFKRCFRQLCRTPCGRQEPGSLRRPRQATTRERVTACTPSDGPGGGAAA
Chain of UniProt P08510 (whole entry, unmodified, looked up): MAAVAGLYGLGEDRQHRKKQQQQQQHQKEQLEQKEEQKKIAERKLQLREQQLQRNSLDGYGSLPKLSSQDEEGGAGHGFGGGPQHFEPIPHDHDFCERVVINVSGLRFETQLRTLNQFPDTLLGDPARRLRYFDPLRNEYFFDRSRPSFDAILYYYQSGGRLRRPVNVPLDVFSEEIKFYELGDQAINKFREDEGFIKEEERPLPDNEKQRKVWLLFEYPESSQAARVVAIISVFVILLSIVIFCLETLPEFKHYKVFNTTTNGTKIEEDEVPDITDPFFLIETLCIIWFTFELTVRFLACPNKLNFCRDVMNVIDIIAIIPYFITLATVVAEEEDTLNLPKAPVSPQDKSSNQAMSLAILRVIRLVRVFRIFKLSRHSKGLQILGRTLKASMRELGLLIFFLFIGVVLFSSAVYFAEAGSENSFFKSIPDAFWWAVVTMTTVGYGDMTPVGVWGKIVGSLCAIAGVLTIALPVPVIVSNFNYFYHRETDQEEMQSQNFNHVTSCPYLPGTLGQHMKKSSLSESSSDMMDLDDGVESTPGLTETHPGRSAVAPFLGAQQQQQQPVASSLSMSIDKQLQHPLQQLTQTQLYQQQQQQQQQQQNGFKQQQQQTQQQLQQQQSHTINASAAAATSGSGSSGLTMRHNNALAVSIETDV
Chain of UniProt P19490 (whole entry, looked up): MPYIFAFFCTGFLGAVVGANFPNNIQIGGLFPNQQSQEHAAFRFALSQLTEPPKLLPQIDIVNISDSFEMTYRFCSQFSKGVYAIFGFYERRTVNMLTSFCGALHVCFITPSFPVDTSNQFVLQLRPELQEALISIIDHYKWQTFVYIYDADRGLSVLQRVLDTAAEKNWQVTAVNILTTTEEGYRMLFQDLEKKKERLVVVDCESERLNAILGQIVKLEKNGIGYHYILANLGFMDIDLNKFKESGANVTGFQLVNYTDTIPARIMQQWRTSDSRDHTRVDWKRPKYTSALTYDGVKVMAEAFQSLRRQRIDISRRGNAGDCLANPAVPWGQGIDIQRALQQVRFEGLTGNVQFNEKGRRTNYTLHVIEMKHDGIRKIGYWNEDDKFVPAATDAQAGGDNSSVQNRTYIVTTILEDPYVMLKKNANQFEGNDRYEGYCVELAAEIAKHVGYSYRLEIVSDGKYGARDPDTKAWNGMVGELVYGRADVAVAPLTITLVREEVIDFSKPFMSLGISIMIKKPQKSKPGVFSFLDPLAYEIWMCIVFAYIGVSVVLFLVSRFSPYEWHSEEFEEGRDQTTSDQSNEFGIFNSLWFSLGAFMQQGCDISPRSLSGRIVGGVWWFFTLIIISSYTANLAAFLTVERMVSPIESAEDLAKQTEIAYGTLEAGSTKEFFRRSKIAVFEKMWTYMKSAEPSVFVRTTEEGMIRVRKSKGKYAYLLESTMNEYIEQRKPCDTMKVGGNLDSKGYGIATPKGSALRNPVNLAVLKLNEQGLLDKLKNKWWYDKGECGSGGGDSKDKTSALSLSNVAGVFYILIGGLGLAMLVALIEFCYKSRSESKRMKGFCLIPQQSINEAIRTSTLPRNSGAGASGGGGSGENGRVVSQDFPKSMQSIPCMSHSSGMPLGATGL

| SMILES | target or system | test | test system | setting | scale | measurement | value |
| --- | --- | --- | --- | --- | --- | --- | --- |
| O=C(Nc1ccc2c(c1)C=CCP(=O)(O)O2)c1ccc(F)cc1 | CA9 |  |  |  |  | Ki | 27.4 nM |
| Cc1cc(C)c2sc(NC(=O)c3ccc(Br)o3)nc2n1 | Genome polyprotein, NS2B-NS3 protease (ZIKV, UniProt A0A024B7W1) | inhibitor |  |  |  | IC50 | 66000 ± 3000 nM |
| O=C(Nc1ccc2c(c1)C=CCP(=O)(O)O2)c1ccc(Cl)cc1 | CA9 |  |  |  |  | Ki | 158 nM |
| Cc1cc(O)cc(C)c1C[C@H](C)C(=O)N[C@@H]1CCCCC[C@@H](C(N)=O)NC(=O)[C@H](Cc2ccccc2)NC(=O)[C@H](Cc2ccccc2)NC1=O | Oprd1 (Mus musculus, UniProt P32300) | delta opioid receptor signalling, antagonist | mouse vas deferens | together with: DPDPE |  | Kb | 147 ± 36 nM |
| O=C(Nc1ccc2c(c1)C=CCP(=O)(O)O2)c1ccc(I)cc1 | CA9 |  |  |  |  | Ki | 18.7 nM |
| NC(CC1(C(=O)O)CC2OC(CO)C(O)C(O)C2O1)C(=O)O (stereo not shown) | Gria1 (Rattus norvegicus, UniProt P19490) | [3H]AMPA displacement | HEK-293T/17 membranes |  |  | Ki | > 10000 nM |
| CN1CCCC2(C1)CN(Cc1cccnc1)c1ccc(C(=O)NCC3CCCCC3)cc12 (stereo not shown) | Vero-E6 | CellTiter-Glo ATP |  | concentration not given, 72 h, second round 5-point | reference: DMSO 0%, hyamine -100%, more negative, more toxic | cytotoxicity efficacy | 18.7% |
| COCC1OC2CC(CC(N)C(=O)O)(C(=O)O)OC2C(O)C1O (stereo not shown) | Glutamate receptor ionotropic, kainate 1 (Rattus norvegicus, UniProt P22756, del402-416) | [3H]kainate displacement | HEK-293T/17 membranes |  |  | Ki | 10 nM |
| CCCC[C@@H]1NC(=O)[C@H](Cc2ccc(O)cc2)NC(=O)[C@@H]2CCCN2C(=O)[C@H](CC(=O)O)NC(=O)[C@H](C)NC(=O)[C@H](Cc2ccccc2)NC(=O)[C@@H]2CSCCC(=O)N3CN(CN(C3)C(=O)CCSC[C@@H](C(N)=O)NC1=O)C(=O)CCSCCC(=O)N[C@@H](CC(C)(C)C)C(=O)N1CCC[C@H]1C(=O)N[C@@H](CCC(=O)O)C(=O)N[C@H](CCCCNC(=O)CCc1cn(CCOCCOCCOCCN(CCOCCOCCOCCC(=O)N[C@H]3CSCCC(=O)N4CN5CN(C4)C(=O)CCSC[C@H](NC(=O)[C@@H](CC(=O)O)NC(=O)[C@H](Cc4cccc6ccccc46)NC(=O)[C@@H]4CCCN4C3=O)C(=O)N[C@@H](CCSC)C(=O)N[C@@H](CCCCNC(=N)N)C(=O)N[C@@H](CC(=O)O)C(=O)N[C@@H](Cc3c[nH]c4ccccc34)C(=O)N[C@@H](CO)C(=O)N[C@@H]([C@@H](C)O)C(=O)N3CCC[C@H]3C(=O)N3C[C@H](O)C[C@H]3C(=O)N[C@@H](Cc3c[nH]c4ccccc34)C(=O)N[C@H](C(N)=O)CSCCC5=O)CCOCCOCCOCCn3cc(CCC(=O)NCCCC[C@H]4NC(=O)[C@H](CCC(=O)O)NC(=O)[C@@H]5CCCN5C(=O)[C@H](CC(C)(C)C)NC(=O)CCSCCC(=O)N5CN6CN(C5)C(=O)CCSC[C@H](NC(=O)[C@H](Cc5ccc(O)cc5)NC(=O)[C@@H]5CCCN5C4=O)C(=O)N[C@@H](Cc4ccccc4)C(=O)N[C@@H](C)C(=O)N[C@@H](CC(=O)O)C(=O)N4CCC[C@H]4C(=O)N[C@@H](Cc4ccc(O)cc4)C(=O)N[C@@H](CCCC)C(=O)N[C@H](C(N)=O)CSCCC6=O)nn3)nn1)C(=O)N1CCC[C@H]1C(=O)N[C@@H](Cc1ccc(O)cc1)C(=O)N2 | Tumor necrosis factor receptor superfamily member 9/Nectin-4 | reporter gene, agonist | HT-1376 coculture with reporter cells |  |  | EC50 | 0.26 nM |
| CSCC[C@H](N)C(=O)N[C@@H](C)C(=O)N[C@@H](C)C(=O)N[C@H](C(=O)N[C@@H](C)C(=O)NCC(=O)N[C@@H](CC(C)C)C(=O)N[C@@H](Cc1ccc(O)cc1)C(=O)NCC(=O)N[C@@H](CC(C)C)C(=O)NCC(=O)N[C@@H](CCC(=O)O)C(=O)N[C@@H](CC(=O)O)C(=O)N[C@@H](CCCNC(=N)N)C(=O)N[C@@H](CCC(N)=O)C(=O)N[C@@H](Cc1c[nH]cn1)C(=O)N[C@@H](CCCNC(=N)N)C(=O)N[C@@H](CCCCN)C(=O)N[C@@H](CCCCN)C(=O)N[C@@H](CCC(N)=O)C(N)=O)C(C)C | Sh, DEL6-46 (Drosophila melanogaster, UniProt P08510) | ion current, blocker, inside-out patch clamp |  | +50 mV |  | Kd | 4200 nM |
| O=C(Nc1ccc2c(c1)C=CCP(=O)(O)O2)c1ccccc1 | CA9 |  |  |  |  | Ki | 10.8 nM |
| C[C@H]1CN(c2n[nH]c3nc(N[C@H]4CC[C@H](NS(=O)(=O)CCC(F)(F)F)CC4)ncc23)CCO1 | NLK (Homo sapiens, UniProt Q9UBE8) | competitor, Kinobeads competition | HEK293, K562, placenta extract |  |  | IC50 | 620 nM |
| CN(C)c1nc(N(C)C)nc(N(C)C)n1 | human coronavirus OC43 | virus-induced cell killing | MRC-5 | maximum over 10 doses |  | maximum inhibition | 1.04% |
| CCCC[C@@H]1NC(=O)[C@H](Cc2ccc(O)cc2)NC(=O)[C@@H]2CCCN2C(=O)[C@H](CC(=O)O)NC(=O)[C@H](C)NC(=O)[C@H](Cc2ccccc2)NC(=O)[C@@H]2CSCCC(=O)N3CN(CN(C3)C(=O)CCSC[C@@H](C(=O)N[C@@H](C)C(N)=O)NC1=O)C(=O)CCSC[C@H](NC(=O)[C@H](C)NC(C)=O)C(=O)N[C@@H]([C@@H](C)CC)C(=O)N[C@@H](CCC(=O)O)C(=O)N[C@@H](CCC(=O)O)C(=O)N[C@H](CCCCNC(=O)CCc1cn(CCOCCOCCOCCN(CCOCCOCCOCCC(=O)N[C@H]3CSCCC(=O)N4CN5CN(C4)C(=O)CCSC[C@H](NC(=O)[C@@H](CC(=O)O)NC(=O)[C@H](Cc4cccc6ccccc46)NC(=O)[C@@H]4CCCN4C3=O)C(=O)N[C@@H](CCSC)C(=O)N[C@@H](CCCCNC(=N)N)C(=O)N[C@@H](CC(=O)O)C(=O)N[C@@H](Cc3c[nH]c4ccccc34)C(=O)N[C@@H](CO)C(=O)N[C@@H]([C@@H](C)O)C(=O)N3CCC[C@H]3C(=O)N3C[C@H](O)C[C@H]3C(=O)N[C@@H](Cc3c[nH]c4ccccc34)C(=O)N[C@H](C(N)=O)CSCCC5=O)CCOCCOCCOCCn3cc(CCC(=O)NCCCC[C@H]4NC(=O)[C@H](CCC(=O)O)NC(=O)[C@H](CCC(=O)O)NC(=O)[C@H]([C@@H](C)CC)NC(=O)[C@@H](NC(=O)[C@H](C)NC(C)=O)CSCCC(=O)N5CN6CN(C5)C(=O)CCSC[C@H](NC(=O)[C@H](Cc5ccc(O)cc5)NC(=O)[C@H](CCC(N)=O)NC4=O)C(=O)N[C@@H](Cc4ccccc4)C(=O)N[C@@H](C)C(=O)N[C@@H](CC(=O)O)C(=O)N4CCC[C@H]4C(=O)N[C@@H](Cc4ccc(O)cc4)C(=O)N[C@@H](CCCC)C(=O)N[C@H](C(=O)N[C@@H](C)C(N)=O)CSCCC6=O)nn3)nn1)C(=O)N[C@@H](CCC(N)=O)C(=O)N[C@@H](Cc1ccc(O)cc1)C(=O)N2 | Tumor necrosis factor receptor superfamily member 9/Nectin-4 | reporter gene, agonist | HT-1376 coculture with reporter cells |  |  | EC50 | 0.9 nM |
| CNCCC(Oc1ccc(C(F)(F)F)cc1)c1ccccc1 (stereo not shown) | human coronavirus OC43 | virus-induced cell killing | MRC-5 | screen |  | maximum inhibition | 26.5% |
| COc1cc(Nc2ncc(F)c(Nc3ccc4c(n3)NC(=O)C(C)(C)O4)n2)cc(OC)c1OC | MMP14 (Homo sapiens, UniProt P50281) | enzyme activity, inhibitor |  |  |  | IC50 | > 10000 nM |

A few entries again:
| SMILES | target or system | test | test system | setting | scale | measurement | value |
| --- | --- | --- | --- | --- | --- | --- | --- |
| CN(C)c1nc(N(C)C)nc(N(C)C)n1 | human coronavirus OC43 | virus-induced cell killing | MRC-5 | maximum over 10 doses |  | maximum inhibition | 1.04% |
